Results pooled from the literature.
Lines come from different studies, so protocols differ.
Cell line: HepG2

`CC1=CC(OC(=O)c2ccccc2)C2(COC(=O)c3ccccc3)CCC(=C(C)C)C2C(O)CC2(C)OC2CC1` (stereo not shown) gave a viability of 68% (cell growth or viability, CCK-8; 50 µM, 24 h).
With `O=C(Cc1c(-c2ccccc2)n[nH]c1-c1ccccc1)NO` the viability was 100% (CytoTox-ONE; 30 µM, 24 h, 10% FBS).
The viability of `Cc1ccc(C(C)C)c(O)c1` is reported as 93% (cell growth or viability, MTT; 25 µM, 24 h).
`COc1cc([C@@H]2OC[C@@H]3[C@H]2CO[C@H]3c2cc(OC)c(O)c(OC)c2)cc(OC)c1O` has a viability of 92.6% (cell growth or viability, CCK-8; 20 µM, 24 h).
For `CCOC(=O)c1cn(-c2nc(C)n[nH]2)nn1`, the viability was 89.9% (cell growth or viability, MTT; 500 µM, 72 h).
With `COc1ccc(Nc2nccc(-c3c[nH]nc3-c3cccnc3)n2)cc1` the viability was 78% (cell growth or viability; 30 µM).
`NCC1OC(OC2C(N)CC(N)C(OC3OC(CO)C(O)C(N)C3O)C2OCCCCCCCCCCCCn2cc(CNc3nc(NCc4cn(CCCCCCCCCCCCOC5C(OC6OC(CN)C(O)CC6N)C(N)CC(N)C5OC5OC(CO)C(O)C(N)C5O)nn4)nc(NCc4cn(CCCCCCCCCCCCOC5C(OC6OC(CN)C(O)CC6N)C(N)CC(N)C5OC5OC(CO)C(O)C(N)C5O)nn4)n3)nn2)C(N)CC1O` (stereo not shown) gave a viability of 27% (cell growth or viability, resazurin; 27 µM, 48 h).
For `CC(=O)O[C@@H]1CC[C@@]2(C)C(CC[C@]3(C)C2C(=O)C=C2C4[C@@H](C)[C@H](C)CC[C@]4(C)CC[C@]23C)[C@@]1(C)C(=O)OCc1cn(-c2cc(=O)oc3ccccc23)nn1` (stereo partly shown), the viability was 94% (cell growth or viability, MTT; 25 µM, 24 h).
`NC[C@H]1O[C@H](O[C@H]2[C@H](OCCCCCCCCCCCCn3cc(CNc4nc(NCc5cn(CCCCCCCCCCCCO[C@@H]6[C@@H](O)[C@H](N)C[C@H](N)[C@H]6O[C@H]6O[C@H](CN)[C@@H](O)C[C@H]6N)nn5)nc(NCc5cn(CCCCCCCCCCCCO[C@@H]6[C@@H](O)[C@H](N)C[C@H](N)[C@H]6O[C@H]6O[C@H](CN)[C@@H](O)C[C@H]6N)nn5)n4)nn3)[C@@H](O)[C@H](N)C[C@@H]2N)[C@H](N)C[C@@H]1O` gave a viability of 70% (cell growth or viability, resazurin; 27 µM, 48 h).
The viability of `CC(=O)O[C@@H]1CC[C@@]2(C)C(CC[C@]3(C)C2C(=O)C=C2C4[C@@H](C)[C@H](C)CC[C@]4(C)CC[C@]23C)[C@@]1(C)C(=O)OCC(=O)Oc1cc(C)ccc1C(C)C` (stereo partly shown) is reported as 91% (cell growth or viability, MTT; 25 µM, 24 h).

For quick reference, copied from above:
For `CC(=O)O[C@@H]1CC[C@@]2(C)C(CC[C@]3(C)C2C(=O)C=C2C4[C@@H](C)[C@H](C)CC[C@]4(C)CC[C@]23C)[C@@]1(C)C(=O)OCc1cn(-c2cc(=O)oc3ccccc23)nn1` (stereo partly shown), the viability was 94% (cell growth or viability, MTT; 25 µM, 24 h).
`NC[C@H]1O[C@H](O[C@H]2[C@H](OCCCCCCCCCCCCn3cc(CNc4nc(NCc5cn(CCCCCCCCCCCCO[C@@H]6[C@@H](O)[C@H](N)C[C@H](N)[C@H]6O[C@H]6O[C@H](CN)[C@@H](O)C[C@H]6N)nn5)nc(NCc5cn(CCCCCCCCCCCCO[C@@H]6[C@@H](O)[C@H](N)C[C@H](N)[C@H]6O[C@H]6O[C@H](CN)[C@@H](O)C[C@H]6N)nn5)n4)nn3)[C@@H](O)[C@H](N)C[C@@H]2N)[C@H](N)C[C@@H]1O` gave a viability of 70% (cell growth or viability, resazurin; 27 µM, 48 h).
